Assay results from different studies.
A part holds a random share of what one study measured.

Series 1 — technique: protein binding microarray; molecule type: double-stranded DNA, one strand shown; matrix: in vitro; tested at: not given; baseline: not given; direction: higher = stronger binding
Target: Histone acetyltransferase KAT6A, winged helix 2, GST fusion (KAT6A, Homo sapiens, UniProt Q92794, residues 85-181)
Notes: 8-mer, flanks averaged, mean of 2 arrays, mostly near background
Target sequence (chain): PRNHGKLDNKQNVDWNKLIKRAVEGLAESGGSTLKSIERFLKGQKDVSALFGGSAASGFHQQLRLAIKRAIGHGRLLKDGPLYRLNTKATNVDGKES
For `ACAACTAA`, the E-score was 0.0673.
`CGTCACTA` has an E-score of -0.0836.
`CAGCCAGG` gave an E-score of 0.0763.
For `AGACTACA`, the E-score was -0.197.
With `AGTGACAT` the E-score was 0.0154.
`AAACGAGC` has an E-score of 0.0836.
`AATTATGA` has an E-score of 0.103.
With `ATTACTCA` the E-score was 0.0476.

Series 2 — observed: enzyme activity; mode: inhibitor; tested at: 20 µM
Target: Replicase polyprotein 1ab, polymerase (rep, Severe acute respiratory syndrome coronavirus 2, UniProt P0DTD1)
With `O=C(O)CCn1c2c(c3ccccc31)C[C@H](NS(=O)(=O)c1ccc(F)cc1)CC2` the inhibition was -8.43%.
`CCCCCN(CCCOC)C(=O)[C@@H](CCC(=O)O)NC(=O)c1ccc(Cl)c(Cl)c1` gave an inhibition of 0.47%.
`NC(N)=NC(N)=Nc1ccccc1` gave an inhibition of -10.8%.
With `Nc1nc(OCC2CCCCC2)c2[nH]cnc2n1` the inhibition was 11.4%.
`Cn1cc(/C=C/C(=O)c2cccc(F)c2)cc1/C=C/C(=O)NO` has an inhibition of 8.59%.
`Cn1cc(-c2ccc3nnc(Sc4ccc5ncccc5c4)n3n2)cn1` has an inhibition of 0.68%.
`NS(=O)(=O)c1cc(-c2nnn[nH]2)c(NCc2cccs2)cc1Cl` has an inhibition of 6.52%.
`CC(C)(C)c1cc(C(C)(C)C)c2c(c1)C(O)(C(F)(F)F)C(=O)O2` (racemic) has an inhibition of 4.16%.
For `CC1=C(/C=C/C(C)=C/C=C/C(C)=C/CO)C(C)(C)CCC1`, the inhibition was 33.3%.
`C[N+](C)(C)CC(=O)O` gave an inhibition of 9.33%.
The inhibition of `CC(C)N(CCCNC(=O)Nc1ccc(C(C)(C)C)cc1)C[C@H]1O[C@@H](n2cc(Br)c3c(N)ncnc32)[C@H](O)[C@@H]1O` is reported as -4.31%.
The inhibition of `COc1nccnc1NS(=O)(=O)c1ccc(N)cc1` is reported as 2.45%.
`CN(C)CCCOc1nn(Cc2ccccc2)c2ccccc12` gave an inhibition of -4.82%.
The inhibition of `O=C1N=C(N2CCOCC2)CN1c1ccc(Cl)cc1` is reported as -2.68%.
The inhibition of `CCC(=O)O[C@H](CC(=O)O)C[N+](C)(C)C` is reported as 1.62%.
The inhibition of `CCCCCCCCCCCCCCCCOc1nc2ccc(C)cc2c(=O)o1` is reported as -1.88%.
For `O=C1NC(=O)/C(=C/c2ccc3nccc(-c4ccncc4)c3c2)S1`, the inhibition was 4.94%.
For `CO[C@@H]1[C@H](OC(=O)/C=C/C=C/C=C/C=C/C(=O)O)CC[C@]2(CO2)[C@H]1[C@@]1(C)O[C@@H]1CC=C(C)C`, the inhibition was 3.2%.
For `O=C(NC(=O)c1c(F)cccc1Cl)NC1c2ccccc2-c2ccccc21`, the inhibition was -1.66%.
For `C[C@]12CCC(=O)C=C1[C@@H]1C[C@@H]1[C@H]1[C@@H]3[C@@H]4C[C@@H]4[C@@]4(CCC(=O)O4)[C@@]3(C)CC[C@@H]12`, the inhibition was -4.29%.

Series 3 — technique: RNA Bind-n-Seq; molecule type: RNA; matrix: in vitro; tested at: 365 nM; baseline: no-protein control; direction: higher = stronger binding
Target: RNA binding protein fox-1 homolog 2, RRM domain, GST-SBP tag (RBFOX2, Homo sapiens, UniProt O43251-10, residues 100-194)
Notes: natural RNA segment, single round, ends assumed
Constant ends, left off below: GGGAGUUCUACAGUCCGACGAUC … UGGAAUUCUCGGGUGCCAA
Target sequence (chain): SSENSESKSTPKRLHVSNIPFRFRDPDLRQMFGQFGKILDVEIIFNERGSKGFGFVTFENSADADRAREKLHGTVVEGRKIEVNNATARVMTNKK
`ACUUGUUUGAAAAUUUGGAAUAGUGCUGCUGUCAGCUUAUUUUUCUGGUACUUGUAUUUUCUAUGUUAAAUGAUCUUUAUAUGUGUUGGAUUAACAAAUAUUUUGAGUUU` — result for “RBNS enrichment (R)”: 0.678.
For `UUUACUUAUGCAACUACUAAUUUAAAUACUUUCCAGAAGUGGGAUACAUAAAGCUAUGGUUUAAUAGCUGUAUUUAUUAAAGUACCUAUGAAGGGUUUGGGGUAGCAUUC`, “RBNS enrichment (R)” read 1.17.
`GCUAAGAGCACACAGAAUGGAUCUGACUGAGGGAGGAGACCACGGGAAAGCAAGGUUGCCUGGUAGCUCCAGCCCACAGUCCUCCCCUUCUGAAAGACCCACAGCGAUCU`: “RBNS enrichment (R)” 1.09.
Under “RBNS enrichment (R)”, `UAAAUUCUGGUAUACAUUGAAUUCAUUAUAAUUUGGGUGACUAGAACAACUUGAAGAUUGUAGCAAUAAGCUGGACUAGUGUCCUAAAAAUGGCUAACUGAUGAAUUAGA` is recorded as 0.336.
`CUUAACAAUGAGCAUAGCUGGUCUCAGCCAGGGCACUCAGCACCUUCCCUUAAGGAGCAAGAAGCGCCUUCUCUGUCAGGUAAGGGGAUAAGCUCUGCUGGAUCCAAGGG` — result for “RBNS enrichment (R)”: 0.28.
`GAUAUGGUUUGGCUGUGUCCCCAUCCAAAUAUCACCUUAAAUUGUAGCUCCCAUAAUUGUGGGAGGGACCUGGUGGGAGAUAAUUGAAUCAUAGGGGCAGUUUCUCCCAU` — result for “RBNS enrichment (R)”: 0.262.
Under “RBNS enrichment (R)”, `GAGAUAGGGGGCAGCCUUCAAUGGCAGCUCAUACUUCACCUUCCCCAGACUUGCACUGGGGUAGGAUAUGGAACGAUGGGGAGGUUUUUAAGGGCCGGGGAUGGAUCUUU` is recorded as 0.423.
`CCACCUUGACGGUGGGGCGUAGACUUGACAACAUCCCACAGUGGCACGGAGAGAAGGCCCAUACCUUCUGGUUGCUUCAGACCUGACACCGUCCCUCAGUGAUACGUACA`: “RBNS enrichment (R)” 0.182.

Series 4 — observed: enzyme activity; mode: inhibitor; tested at: 20 µM; notes: hit confirmation
Target: Replicase polyprotein 1ab, main protease (rep, Severe acute respiratory syndrome coronavirus 2, UniProt P0DTD1)
With `O=C(O)c1ccccc1-c1c2cc(I)c(=O)c(I)c-2oc2c(I)c(O)c(I)cc12` the inhibition was 12.9%.
`CCCCc1nc(C)c(CC(=S)N(C)C)c(=O)n1Cc1ccc(-c2ccccc2-c2nnn[nH]2)cc1` has an inhibition of 1%.
`CC[C@@H](c1ccc(F)c(F)c1)n1c(C(=O)OC)c(-c2ccno2)[nH]c1=S` gave an inhibition of 22.3%.

Series 5 — cell line: HEK-293T; observed: pseudovirus infection; organism: VSV pseudotyped with SARS-CoV-2 spike; tested at: 10 µM; time: 16 h; baseline: vehicle-treated
For `CC(=O)OCC(=O)[C@@]12OC(C)(C)O[C@@H]1C[C@H]1[C@@H]3C[C@H](F)C4=CC(=O)C=C[C@]4(C)[C@@]3(F)[C@@H](O)C[C@@]12C`, the GFP-positive cells was 77.6%.
With `CN(C)[C@@H]1C(O)=C(C(N)=O)C(=O)[C@@]2(O)C(O)=C3C(=O)c4c(O)ccc(Cl)c4[C@@H](O)[C@H]3C[C@@H]12` the GFP-positive cells was 66.6%.
`CCN(CC)C(=O)[C@@]1(c2ccccc2)C[C@H]1CN` gave a GFP-positive cells of 77.4%.
`O=C(Nc1c(Cl)cncc1Cl)c1ccc(OC(F)F)c(OCC2CC2)c1` gave a GFP-positive cells of 96.4%.
